Published values pooled from the literature.
Each line is one published result; not all experiments were run side by side. ± marks the error that the study gave.
FGFR1: Fibroblast growth factor receptor 1 (FGFR1, Homo sapiens, UniProt P11362)
Sequence of UniProt P11362 (whole entry, looked up): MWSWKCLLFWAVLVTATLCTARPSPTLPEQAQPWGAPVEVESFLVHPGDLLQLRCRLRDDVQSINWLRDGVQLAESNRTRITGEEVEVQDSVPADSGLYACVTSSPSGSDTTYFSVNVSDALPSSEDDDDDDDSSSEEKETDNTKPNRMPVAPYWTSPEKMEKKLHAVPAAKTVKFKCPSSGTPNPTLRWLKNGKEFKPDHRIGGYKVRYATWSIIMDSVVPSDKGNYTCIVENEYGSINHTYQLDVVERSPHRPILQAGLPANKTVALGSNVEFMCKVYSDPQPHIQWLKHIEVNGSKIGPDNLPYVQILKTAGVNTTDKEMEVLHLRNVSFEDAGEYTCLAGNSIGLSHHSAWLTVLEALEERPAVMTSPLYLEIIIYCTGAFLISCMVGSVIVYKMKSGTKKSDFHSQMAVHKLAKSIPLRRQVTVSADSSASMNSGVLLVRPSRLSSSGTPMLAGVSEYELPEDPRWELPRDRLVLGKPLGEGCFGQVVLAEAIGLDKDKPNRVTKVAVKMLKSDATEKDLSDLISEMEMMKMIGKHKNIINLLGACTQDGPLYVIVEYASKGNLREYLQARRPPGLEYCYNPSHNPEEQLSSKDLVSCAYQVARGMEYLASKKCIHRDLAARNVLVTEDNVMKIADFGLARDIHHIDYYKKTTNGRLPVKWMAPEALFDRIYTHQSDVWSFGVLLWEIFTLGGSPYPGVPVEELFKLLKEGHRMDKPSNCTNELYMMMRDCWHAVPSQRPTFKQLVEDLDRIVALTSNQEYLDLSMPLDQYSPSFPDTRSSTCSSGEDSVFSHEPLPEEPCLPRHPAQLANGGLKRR
Sequence of UniProt Q08345 (whole entry, looked up): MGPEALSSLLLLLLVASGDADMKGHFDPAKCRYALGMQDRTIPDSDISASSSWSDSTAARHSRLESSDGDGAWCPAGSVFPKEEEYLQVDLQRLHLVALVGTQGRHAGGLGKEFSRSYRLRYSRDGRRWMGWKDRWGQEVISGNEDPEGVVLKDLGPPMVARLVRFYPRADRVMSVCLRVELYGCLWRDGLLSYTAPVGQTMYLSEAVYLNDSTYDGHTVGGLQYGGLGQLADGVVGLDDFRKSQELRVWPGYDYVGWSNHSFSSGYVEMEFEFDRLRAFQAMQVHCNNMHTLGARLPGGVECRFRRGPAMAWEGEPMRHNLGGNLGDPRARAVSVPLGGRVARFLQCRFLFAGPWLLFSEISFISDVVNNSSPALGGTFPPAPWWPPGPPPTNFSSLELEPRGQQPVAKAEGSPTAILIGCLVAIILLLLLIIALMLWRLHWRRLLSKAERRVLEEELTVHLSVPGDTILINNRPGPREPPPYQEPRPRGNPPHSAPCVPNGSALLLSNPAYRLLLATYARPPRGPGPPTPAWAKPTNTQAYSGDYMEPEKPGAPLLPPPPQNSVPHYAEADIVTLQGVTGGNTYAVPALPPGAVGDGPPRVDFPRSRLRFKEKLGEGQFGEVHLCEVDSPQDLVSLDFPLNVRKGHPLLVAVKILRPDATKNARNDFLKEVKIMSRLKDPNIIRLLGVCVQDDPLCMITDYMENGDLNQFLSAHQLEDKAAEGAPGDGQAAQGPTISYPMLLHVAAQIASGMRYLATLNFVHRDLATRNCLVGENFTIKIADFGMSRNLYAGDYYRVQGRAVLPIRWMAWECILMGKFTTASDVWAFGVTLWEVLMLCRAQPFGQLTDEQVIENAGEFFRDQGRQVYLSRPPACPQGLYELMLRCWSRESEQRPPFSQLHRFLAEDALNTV
Sequence of UniProt P13346 (whole entry, unmodified, looked up): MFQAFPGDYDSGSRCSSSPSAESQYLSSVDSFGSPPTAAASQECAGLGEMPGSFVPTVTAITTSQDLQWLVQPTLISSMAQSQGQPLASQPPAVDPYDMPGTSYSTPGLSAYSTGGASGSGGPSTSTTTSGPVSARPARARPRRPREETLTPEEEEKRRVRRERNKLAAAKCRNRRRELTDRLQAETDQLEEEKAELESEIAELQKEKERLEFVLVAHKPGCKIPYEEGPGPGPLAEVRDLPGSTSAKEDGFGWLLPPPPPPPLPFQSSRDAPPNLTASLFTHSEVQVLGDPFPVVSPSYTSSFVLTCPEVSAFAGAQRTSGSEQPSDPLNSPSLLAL
Sequence of UniProt P47871 (whole entry, looked up): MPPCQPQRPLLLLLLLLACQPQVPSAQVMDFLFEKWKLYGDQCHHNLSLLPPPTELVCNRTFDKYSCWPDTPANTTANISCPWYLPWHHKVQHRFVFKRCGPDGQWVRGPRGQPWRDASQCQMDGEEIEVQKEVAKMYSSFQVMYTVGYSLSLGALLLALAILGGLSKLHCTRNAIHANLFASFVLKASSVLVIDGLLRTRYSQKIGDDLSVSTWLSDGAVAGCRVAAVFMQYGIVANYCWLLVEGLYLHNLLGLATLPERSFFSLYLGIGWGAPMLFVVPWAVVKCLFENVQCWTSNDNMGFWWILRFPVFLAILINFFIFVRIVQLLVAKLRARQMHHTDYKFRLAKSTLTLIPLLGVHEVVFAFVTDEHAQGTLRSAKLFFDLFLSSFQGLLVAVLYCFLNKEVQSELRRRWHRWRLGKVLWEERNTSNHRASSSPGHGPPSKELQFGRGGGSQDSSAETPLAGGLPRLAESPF
Sequence of UniProt Q99P21 (whole entry, looked up): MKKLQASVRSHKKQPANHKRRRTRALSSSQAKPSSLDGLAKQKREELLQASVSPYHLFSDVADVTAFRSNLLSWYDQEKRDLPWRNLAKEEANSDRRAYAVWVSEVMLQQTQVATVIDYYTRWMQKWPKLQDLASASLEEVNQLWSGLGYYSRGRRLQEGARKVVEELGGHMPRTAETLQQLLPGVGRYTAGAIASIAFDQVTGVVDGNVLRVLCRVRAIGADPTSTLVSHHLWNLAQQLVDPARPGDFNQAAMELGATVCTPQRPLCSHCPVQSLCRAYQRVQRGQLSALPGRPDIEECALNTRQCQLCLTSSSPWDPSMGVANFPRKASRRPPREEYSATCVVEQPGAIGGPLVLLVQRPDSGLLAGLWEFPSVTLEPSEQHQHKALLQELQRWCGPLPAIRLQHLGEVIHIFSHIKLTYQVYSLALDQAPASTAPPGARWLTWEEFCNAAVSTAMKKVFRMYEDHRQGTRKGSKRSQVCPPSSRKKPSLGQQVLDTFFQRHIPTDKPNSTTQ
Sequence of UniProt P35354 (whole entry, looked up): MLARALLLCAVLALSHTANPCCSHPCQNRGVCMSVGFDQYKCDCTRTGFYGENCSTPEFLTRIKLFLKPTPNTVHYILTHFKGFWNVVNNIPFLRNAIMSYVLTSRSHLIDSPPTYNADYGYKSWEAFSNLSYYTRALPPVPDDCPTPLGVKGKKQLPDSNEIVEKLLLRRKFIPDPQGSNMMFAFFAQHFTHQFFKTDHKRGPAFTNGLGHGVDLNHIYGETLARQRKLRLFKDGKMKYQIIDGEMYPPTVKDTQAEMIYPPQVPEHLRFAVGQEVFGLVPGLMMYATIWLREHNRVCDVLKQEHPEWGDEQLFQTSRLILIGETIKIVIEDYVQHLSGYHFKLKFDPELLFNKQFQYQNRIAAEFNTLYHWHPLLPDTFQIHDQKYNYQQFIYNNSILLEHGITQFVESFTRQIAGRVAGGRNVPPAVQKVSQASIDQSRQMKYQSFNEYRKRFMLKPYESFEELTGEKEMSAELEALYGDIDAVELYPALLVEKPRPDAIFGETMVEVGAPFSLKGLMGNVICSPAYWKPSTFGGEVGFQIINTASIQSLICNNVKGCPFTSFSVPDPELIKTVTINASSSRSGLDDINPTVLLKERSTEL
Sequence of UniProt Q9Y251 (whole entry, looked up): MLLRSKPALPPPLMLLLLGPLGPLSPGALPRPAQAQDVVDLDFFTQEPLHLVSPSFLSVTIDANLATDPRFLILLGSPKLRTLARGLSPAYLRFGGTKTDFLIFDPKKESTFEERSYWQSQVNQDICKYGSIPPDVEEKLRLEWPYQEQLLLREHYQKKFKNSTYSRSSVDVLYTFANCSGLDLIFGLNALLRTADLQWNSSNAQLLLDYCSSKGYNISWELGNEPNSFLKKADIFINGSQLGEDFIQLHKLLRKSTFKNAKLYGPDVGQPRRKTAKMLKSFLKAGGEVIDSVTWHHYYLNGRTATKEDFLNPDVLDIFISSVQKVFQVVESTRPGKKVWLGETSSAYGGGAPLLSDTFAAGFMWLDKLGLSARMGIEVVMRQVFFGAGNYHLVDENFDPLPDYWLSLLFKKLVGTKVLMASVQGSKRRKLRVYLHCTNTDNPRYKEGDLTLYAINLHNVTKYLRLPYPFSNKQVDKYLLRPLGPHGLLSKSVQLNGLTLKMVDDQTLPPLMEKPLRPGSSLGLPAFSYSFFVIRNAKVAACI
Sequence of UniProt P11511 (whole entry, looked up): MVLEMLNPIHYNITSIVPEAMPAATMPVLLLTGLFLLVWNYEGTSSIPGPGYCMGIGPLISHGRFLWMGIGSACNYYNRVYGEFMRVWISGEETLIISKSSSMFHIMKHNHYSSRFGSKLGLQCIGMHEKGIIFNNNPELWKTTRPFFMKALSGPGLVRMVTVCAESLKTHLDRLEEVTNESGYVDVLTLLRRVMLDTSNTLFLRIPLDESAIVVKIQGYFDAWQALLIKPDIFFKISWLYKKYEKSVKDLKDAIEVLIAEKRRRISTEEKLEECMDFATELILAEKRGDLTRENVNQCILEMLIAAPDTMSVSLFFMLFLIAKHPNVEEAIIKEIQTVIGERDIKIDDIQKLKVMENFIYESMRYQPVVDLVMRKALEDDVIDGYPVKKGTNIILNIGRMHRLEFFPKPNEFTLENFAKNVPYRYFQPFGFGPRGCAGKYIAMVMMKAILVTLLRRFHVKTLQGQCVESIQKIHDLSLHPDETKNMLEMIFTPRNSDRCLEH
Sequence of UniProt P09211 (whole entry, looked up): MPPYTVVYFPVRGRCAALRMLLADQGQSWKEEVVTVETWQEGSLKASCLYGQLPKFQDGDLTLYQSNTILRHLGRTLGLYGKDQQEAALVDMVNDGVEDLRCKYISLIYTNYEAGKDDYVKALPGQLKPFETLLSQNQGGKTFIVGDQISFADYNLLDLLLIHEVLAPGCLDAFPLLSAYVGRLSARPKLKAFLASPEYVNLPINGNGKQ

| SMILES | target | assay | setting | IC50 |
| --- | --- | --- | --- | --- |
| COc1cc2nccc(Oc3ccc(NC(=S)NC4CC=C(F)CC4)c(Cl)c3)c2cc1C(N)=O (centres unmarked) | FGFR1 | – | – | 7.48 µM |
| CC(C)NCCCNC(=O)c1cccc(Br)c1 | Lethal(3)malignant brain tumor-like protein 3 (Homo sapiens, UniProt Q96JM7) | methyl-lysine reader binding, inhibitor, AlphaScreen | – | > 100 µM |
| CCCCn1c(-c2ccc3nn(CCC)c(Cc4ccc(-c5ccccc5-c5nn[nH]n5)cc4)c3c2)nc2ccccc21 | AGTR1 (Homo sapiens, UniProt P30556) | reporter gene, antagonist, luciferase | – | 0.00631 µM |
| O=C(O)[C@@H]1Cc2c([nH]c3ccccc23)[C@@H](c2ccc(Cl)cc2)N1 | MEP cytidylyltransferase IspD (Plasmodium falciparum, UniProt Q8I273) | enzyme activity, inhibitor, fluorimetric pyrophosphate | – | 0.51 ± 0.09 µM |
| COc1ccc(C2CC(Br)=NO2)cc1 (racemic) | GSTP1 (Homo sapiens, UniProt P09211) | enzyme activity, inhibitor | added: GSH and 1-bromo-2,4-dinitrobenzene | 15 µM |
| Cc1ccc(-n2nc(C3CC3)nc2C2CCCN(C(N)=O)C2)cc1C (centres unmarked) | Aromatase (CYP19A1, Homo sapiens, UniProt P11511) | enzyme activity, inhibitor, fluorescence | – | 42.8 µM |
| CCCN(c1ccc(C(=O)NCCC(=O)O)cc1)S(=O)(=O)c1cc(C)c(-c2ccc(C(C)(C)C)cc2)c(C)c1 | Glucagon receptor (GCGR, Homo sapiens, UniProt P47871) | cAMP, antagonist | – | 8.4 µM |
| O=C(C[C@H](Cc1ccc(O)cc1)n1nncc1CNS(=O)(=O)c1ccc(-c2ccccc2)s1)NO | ERAP2 (Homo sapiens, UniProt Q6P179) | enzyme activity, inhibitor, fluorescence | – | 0.85 µM |
| O=C(Nc1ccc(Cl)c(C(F)(F)F)c1)c1cccc(Oc2ccncc2)c1 | DDR1 (Homo sapiens, UniProt Q08345) | enzyme activity, inhibitor, mobility shift | – | > 30 µM |
| CC(=O)NCCO[C@H]1[C@H](O)[C@@H](O)[C@@H]2O[C@@H]2[C@@H]1C(=O)O | Heparanase (HPSE, Homo sapiens, UniProt Q9Y251) | enzyme activity, inhibitor | pH 5, with preincubation | 5 µM |
| CCOC(=O)c1ccc(/N=c2\oc3ccccc3cc2-c2ccccc2)cc1 | PTGS2 (Homo sapiens, UniProt P35354) | enzyme activity, inhibitor | – | 0.01 µM |
| C=CC(=O)N1CCC(c2cc(C(=O)O)n(C)n2)CC1 | Protein FosB, ΔFosB isoform (Fosb, Mus musculus, UniProt P13346) | ΔFOSB homodimer DNA binding, fluorescence polarization | 15 min, added: TMR-cdk5 oligonucleotide | 29 ± 0.6 µM |
| N#Cc1cnc(Nc2nc3ccccc3o2)nc1-c1ccc(Cl)c(Cl)c1 | Grm5 (Rattus norvegicus, UniProt P31424) | calcium signal, antagonist | – | > 10 µM |
| COc1cc2nccc(Oc3ccc4c(c3)CN(CC(F)F)C(=O)N4)c2cc1C(N)=O | FGFR1 | – | – | 6.04 µM |
| COc1cc(N2CCN(C)CC2)ccc1Nc1ncc2c(n1)N(C)c1ccc(C)cc1C(=O)N2CC(F)(F)F | DCLK2 (Homo sapiens, UniProt Q8N568) | binding, KINOMEscan | – | 1.4 µM |
| NC(=O)Nc1cc(-c2ccc(CN3CCOCC3)cc2)sc1C(N)=O | Adenine DNA glycosylase (Mutyh, Mus musculus, UniProt Q99P21) | base excision activity, fluorogenic probe | – | 10.2 µM |
| COC(=O)C1CN1S(=O)(=O)c1ccc(-c2ccccc2)cc1 (centres unmarked) | P4HB (Homo sapiens, UniProt P07237) | enzyme activity, inhibitor, absorbance | pH 7.6 | 0.45 µM |

Excerpt of the above:
| SMILES | target | assay | setting | IC50 |
| --- | --- | --- | --- | --- |
| COc1cc(N2CCN(C)CC2)ccc1Nc1ncc2c(n1)N(C)c1ccc(C)cc1C(=O)N2CC(F)(F)F | DCLK2 (Homo sapiens, UniProt Q8N568) | binding, KINOMEscan | – | 1.4 µM |
| CCOC(=O)c1ccc(/N=c2\oc3ccccc3cc2-c2ccccc2)cc1 | PTGS2 (Homo sapiens, UniProt P35354) | enzyme activity, inhibitor | – | 0.01 µM |
